Assay results from different studies.
Each numbered part is a random draw from the data of one study; scales do not carry over between parts. Several values in a cell are separate wells, animals, samples, runs or records.
Sequence of UniProt P04049 (whole entry, looked up): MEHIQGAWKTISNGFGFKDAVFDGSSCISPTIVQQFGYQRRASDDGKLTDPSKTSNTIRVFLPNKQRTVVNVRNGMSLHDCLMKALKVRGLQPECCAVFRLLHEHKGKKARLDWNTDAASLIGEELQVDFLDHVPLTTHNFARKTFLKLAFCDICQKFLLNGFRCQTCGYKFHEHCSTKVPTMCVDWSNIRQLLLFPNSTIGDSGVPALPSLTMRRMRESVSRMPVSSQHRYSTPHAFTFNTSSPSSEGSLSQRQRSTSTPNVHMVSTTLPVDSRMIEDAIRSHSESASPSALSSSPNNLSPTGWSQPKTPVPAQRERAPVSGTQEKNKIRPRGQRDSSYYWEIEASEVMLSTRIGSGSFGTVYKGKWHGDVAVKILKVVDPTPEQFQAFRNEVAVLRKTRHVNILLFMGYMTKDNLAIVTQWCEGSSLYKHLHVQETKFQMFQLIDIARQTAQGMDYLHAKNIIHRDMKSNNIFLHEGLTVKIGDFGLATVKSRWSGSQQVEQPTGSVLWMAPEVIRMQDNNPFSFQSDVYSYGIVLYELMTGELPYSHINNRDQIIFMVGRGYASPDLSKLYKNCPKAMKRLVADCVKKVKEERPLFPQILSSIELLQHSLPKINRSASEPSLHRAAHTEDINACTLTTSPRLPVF
Sequence of UniProt P53350 (whole entry, looked up): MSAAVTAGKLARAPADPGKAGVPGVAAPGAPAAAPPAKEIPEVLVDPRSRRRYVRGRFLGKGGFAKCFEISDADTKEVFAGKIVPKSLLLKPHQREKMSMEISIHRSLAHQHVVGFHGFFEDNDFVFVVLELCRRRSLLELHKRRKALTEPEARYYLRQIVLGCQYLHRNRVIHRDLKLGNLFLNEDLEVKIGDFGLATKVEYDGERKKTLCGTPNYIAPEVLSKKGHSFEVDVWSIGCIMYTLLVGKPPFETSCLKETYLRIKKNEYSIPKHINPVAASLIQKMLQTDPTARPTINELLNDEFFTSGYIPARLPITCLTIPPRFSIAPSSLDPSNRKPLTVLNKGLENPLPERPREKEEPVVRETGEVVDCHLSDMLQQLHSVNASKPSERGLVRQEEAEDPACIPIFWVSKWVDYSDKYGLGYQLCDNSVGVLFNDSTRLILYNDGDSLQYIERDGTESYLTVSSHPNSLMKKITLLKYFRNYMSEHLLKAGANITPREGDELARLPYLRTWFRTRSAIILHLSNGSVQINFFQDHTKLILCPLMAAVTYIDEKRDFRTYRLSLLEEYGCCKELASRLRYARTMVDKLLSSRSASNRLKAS
Sequence of UniProt P21802 (whole entry, looked up): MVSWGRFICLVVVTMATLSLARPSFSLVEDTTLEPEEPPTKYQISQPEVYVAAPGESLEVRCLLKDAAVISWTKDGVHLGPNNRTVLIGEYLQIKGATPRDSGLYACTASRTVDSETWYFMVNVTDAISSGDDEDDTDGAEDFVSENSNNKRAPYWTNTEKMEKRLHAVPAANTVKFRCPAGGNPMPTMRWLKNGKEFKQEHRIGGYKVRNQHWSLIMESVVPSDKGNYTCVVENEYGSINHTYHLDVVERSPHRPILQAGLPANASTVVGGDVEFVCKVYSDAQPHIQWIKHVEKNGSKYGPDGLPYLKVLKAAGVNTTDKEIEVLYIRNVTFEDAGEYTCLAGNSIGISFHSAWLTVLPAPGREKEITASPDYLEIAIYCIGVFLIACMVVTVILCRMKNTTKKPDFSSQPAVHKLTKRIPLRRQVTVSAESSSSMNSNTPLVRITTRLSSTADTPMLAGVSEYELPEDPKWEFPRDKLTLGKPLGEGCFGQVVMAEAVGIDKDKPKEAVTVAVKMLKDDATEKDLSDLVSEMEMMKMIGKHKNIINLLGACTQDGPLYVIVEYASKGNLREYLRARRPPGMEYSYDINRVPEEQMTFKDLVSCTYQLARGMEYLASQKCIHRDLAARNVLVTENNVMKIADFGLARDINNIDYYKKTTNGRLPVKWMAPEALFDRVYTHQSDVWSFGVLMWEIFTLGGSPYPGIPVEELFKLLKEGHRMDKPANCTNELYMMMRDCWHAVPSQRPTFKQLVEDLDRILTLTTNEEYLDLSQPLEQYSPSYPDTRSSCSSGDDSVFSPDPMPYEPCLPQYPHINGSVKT
Sequence of UniProt Q99986 (whole entry, looked up): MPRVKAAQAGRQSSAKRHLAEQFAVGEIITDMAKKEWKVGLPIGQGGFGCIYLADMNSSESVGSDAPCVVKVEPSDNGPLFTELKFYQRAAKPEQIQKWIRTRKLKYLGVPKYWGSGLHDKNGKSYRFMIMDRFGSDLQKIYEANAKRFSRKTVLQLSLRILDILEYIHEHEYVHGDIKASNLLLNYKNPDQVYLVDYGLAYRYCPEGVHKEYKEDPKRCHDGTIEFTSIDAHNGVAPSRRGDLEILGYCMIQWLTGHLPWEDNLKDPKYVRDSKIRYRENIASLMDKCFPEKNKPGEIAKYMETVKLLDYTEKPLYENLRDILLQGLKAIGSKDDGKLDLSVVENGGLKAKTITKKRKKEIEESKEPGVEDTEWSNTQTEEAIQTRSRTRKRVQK
Sequence of UniProt P14616 (whole entry, looked up): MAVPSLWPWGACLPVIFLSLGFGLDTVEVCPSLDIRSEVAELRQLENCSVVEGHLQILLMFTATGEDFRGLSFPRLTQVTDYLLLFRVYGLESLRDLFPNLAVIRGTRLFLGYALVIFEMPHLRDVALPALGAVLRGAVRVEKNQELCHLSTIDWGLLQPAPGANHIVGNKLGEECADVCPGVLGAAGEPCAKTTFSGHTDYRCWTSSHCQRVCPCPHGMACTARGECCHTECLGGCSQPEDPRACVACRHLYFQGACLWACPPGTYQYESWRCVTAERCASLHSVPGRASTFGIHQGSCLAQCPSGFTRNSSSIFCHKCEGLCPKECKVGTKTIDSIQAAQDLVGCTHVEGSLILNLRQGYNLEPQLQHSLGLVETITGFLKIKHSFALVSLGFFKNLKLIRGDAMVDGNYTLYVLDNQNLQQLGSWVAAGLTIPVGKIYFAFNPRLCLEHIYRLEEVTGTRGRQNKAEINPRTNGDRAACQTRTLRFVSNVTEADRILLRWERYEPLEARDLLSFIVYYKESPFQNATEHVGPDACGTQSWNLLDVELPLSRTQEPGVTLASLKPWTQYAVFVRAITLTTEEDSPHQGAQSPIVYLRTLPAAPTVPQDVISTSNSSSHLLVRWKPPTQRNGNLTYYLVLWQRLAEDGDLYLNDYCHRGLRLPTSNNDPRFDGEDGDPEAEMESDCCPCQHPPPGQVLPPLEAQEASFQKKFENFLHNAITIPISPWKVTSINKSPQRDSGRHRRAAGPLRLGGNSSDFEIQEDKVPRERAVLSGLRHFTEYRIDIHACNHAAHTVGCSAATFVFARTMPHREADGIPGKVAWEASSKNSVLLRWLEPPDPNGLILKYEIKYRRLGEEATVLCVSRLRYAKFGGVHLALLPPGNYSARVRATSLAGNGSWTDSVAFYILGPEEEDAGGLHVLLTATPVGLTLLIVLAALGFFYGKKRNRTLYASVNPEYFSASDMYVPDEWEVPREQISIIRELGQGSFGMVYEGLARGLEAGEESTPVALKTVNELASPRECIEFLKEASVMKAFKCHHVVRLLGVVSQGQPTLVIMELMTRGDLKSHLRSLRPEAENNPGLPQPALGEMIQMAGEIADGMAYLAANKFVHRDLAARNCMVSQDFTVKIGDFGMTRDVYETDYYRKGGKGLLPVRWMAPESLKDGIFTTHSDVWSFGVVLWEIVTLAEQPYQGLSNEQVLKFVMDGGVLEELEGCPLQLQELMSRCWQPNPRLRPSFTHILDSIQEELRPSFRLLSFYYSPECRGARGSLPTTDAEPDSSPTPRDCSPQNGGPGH

Study 1
SMILES: CO[C@@H]1[C@@H](OC(N)=O)[C@@H](O)[C@H](Oc2ccc3c(O)c(NC(=O)c4ccc(O)c(CC=C(C)C)c4)c(=O)oc3c2C)OC1(C)C
cell line | concentration | setting | relative to | clonogenic survival
RPE-1 wild type | 150 µM | unit not given | untreated | 1.06 and 0.987 and 0.75
RPE-1 BRCA2-/- | 50 µM | unit not given | untreated | 0.803 and 0.837
CAPAN-1 (BRCA2-mutant) | 50 µM | – | – | 43% and 57%

Study 2
Compound: CNC(=O)c1ccc(-c2cnn3ccc(C(=O)N(C)c4ccc(Cl)c(C(=O)OC)c4)cc23)cc1
Organism: Cryptosporidium parvum
Technique: time-kill
Cell line: HCT-8
Strain: nanoluciferase-expressing
Reading: higher = more parasites
concentration | time | parasite luminescence
0.7407 µM | 72 h | 23100 RLU and 21200 RLU
0.02743 µM | 72 h | 27300 RLU and 17300 RLU
0.00102 µM | 8 h | 91700 RLU and 85200 RLU
6.667 µM | 8 h | 117000 RLU and 100000 RLU
0.02743 µM | 24 h | 71100 RLU and 76000 RLU
0.00102 µM | 72 h | 161000 RLU and 234000 RLU

Study 3
Target: 5-hydroxytryptamine receptor 2C (HTR2C, Homo sapiens, UniProt P28335)
Sequence of UniProt P28335 (whole entry, looked up): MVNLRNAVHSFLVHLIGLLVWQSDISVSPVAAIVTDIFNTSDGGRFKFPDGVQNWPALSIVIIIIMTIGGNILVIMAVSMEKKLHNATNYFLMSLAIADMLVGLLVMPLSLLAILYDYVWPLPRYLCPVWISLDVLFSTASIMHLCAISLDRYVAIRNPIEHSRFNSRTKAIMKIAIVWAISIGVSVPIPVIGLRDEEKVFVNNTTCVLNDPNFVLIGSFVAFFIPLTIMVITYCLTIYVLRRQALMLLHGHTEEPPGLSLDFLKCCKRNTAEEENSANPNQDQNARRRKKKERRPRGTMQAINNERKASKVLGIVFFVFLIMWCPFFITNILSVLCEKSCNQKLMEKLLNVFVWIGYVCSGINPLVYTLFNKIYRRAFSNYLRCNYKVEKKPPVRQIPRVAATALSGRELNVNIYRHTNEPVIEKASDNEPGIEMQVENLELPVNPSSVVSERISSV
Observed: ligand displacement
Concentration: 10 µM
SMILES | inhibition [%]
FC(F)(F)c1ccc2c(c1)nc(-c1cccnc1)n2C1CC1 | 30.8
O=C(NCc1ncc(C(F)(F)F)cc1Cl)c1ccc2c(c1)C1(CCS(=O)(=O)CC1)[C@H](C1CC1)N2S(=O)(=O)c1ccc(F)cc1 | 9.65
Cn1cc(Cl)c2c(Oc3c(F)cc(Nc4cc(Cl)nc(N)n4)cc3F)ccnc21 | 2.72
CN(C)C(=O)Cn1cc(-c2nc(C3(c4ccc(-c5cnc(N)nc5)cc4)CC3)no2)cn1 | 9.74
N#Cc1ccc(Nc2ccc3[nH]c(=O)[nH]c3c2)c(Cl)c1 | -9.96
CCS(=O)(=O)c1cc2cc(C[C@@](O)(CC(C)(C)c3ccc(F)cc3C(N)=O)C(F)(F)F)[nH]c2cn1 | 7.33
O=C(O)c1cc(-c2ccc(C3CCNCC3)cc2)c2ccc(-c3ccc(C(F)(F)F)cc3)cc2c1 | 11.2
N#CN1CC[C@@H](C(=O)Nc2nc3c(s2)CN(C(=O)CN=[N+]=[N-])CC3)C1 | 6.22
CCCCN(CCCC)C(=O)CN1C[C@@H](c2cc(OC)c3c(c2)OCO3)[C@H](C(=O)O)[C@H]1CC(C)(C)CCC | 15.7
O=C1NC(c2ccccn2)Sc2ccccc21 (stereo not shown) | 3.98
CC1=C(C#N)C(c2ccc3[nH]nc(C)c3c2)C(C#N)=C(C)N1 | 22.4
Cn1nc(C(=O)NCc2ccc(C(=O)O)cc2)cc1-c1ccc2[nH]ccc2c1 | -9.67
Cc1ccc(-c2cnc([C@@]3(O)CC[C@H](C(=O)O)C(C)(C)C3)s2)cc1Nc1cccc(C(F)(F)F)n1 | 4.21
CC(=O)N1CCC(c2ccc(C(=O)NC(=N)N)cc2C(F)(F)F)CC1 | 2.59

Study 4
Structure (SMILES): N/C(=N\[N+](=O)[O-])N/N=C\c1ccc(-c2cccc([N+](=O)[O-])c2)o1
Observed: enzyme activity
Mode: inhibitor
Concentration: 0.5 µM
Relative to: control
target | remaining activity
Insulin receptor-related protein (INSRR, Homo sapiens, UniProt P14616) | 99.2%
Fibroblast growth factor receptor 2 (FGFR2, Homo sapiens, UniProt P21802) | 104%
RAF proto-oncogene serine/threonine-protein kinase (RAF1, Homo sapiens, UniProt P04049) | 98.1%
Serine/threonine-protein kinase PLK1 (PLK1, Homo sapiens, UniProt P53350) | 98.6%
Serine/threonine-protein kinase VRK1 (VRK1, Homo sapiens, UniProt Q99986) | 95.1%

Some of these lines once more (study 3):
SMILES | inhibition [%]
CC1=C(C#N)C(c2ccc3[nH]nc(C)c3c2)C(C#N)=C(C)N1 | 22.4
Cn1nc(C(=O)NCc2ccc(C(=O)O)cc2)cc1-c1ccc2[nH]ccc2c1 | -9.67
Cc1ccc(-c2cnc([C@@]3(O)CC[C@H](C(=O)O)C(C)(C)C3)s2)cc1Nc1cccc(C(F)(F)F)n1 | 4.21
CC(=O)N1CCC(c2ccc(C(=O)NC(=N)N)cc2C(F)(F)F)CC1 | 2.59
